Assay results gathered from unrelated publications.
Parts stem from different laboratories: compare values within a part only. Positions count from the first letter of the parent shown.

Set 1 — target: CCNB2, cyclin fold, Cln2 fusion (human); technique: yeast growth competition, sequencing; medium: yeast; notes: weak parent motif; reference: not given; reading: higher = stronger binding
Starting sequence: RBL2 docking peptide (human); STTRRRLFVENDS
`STTRRRLTVENDS [F8T]`: “normalised enrichment score” 0.232.
`ATTRRRLFVENDS [S1A]` — result for “normalised enrichment score”: 0.631.
`STTYRRLFVENDS [R4Y]`: “normalised enrichment score” 0.322.
Under “normalised enrichment score”, `STTRRRLFVYNDS [E10Y]` is recorded as -0.308.
For `STTCRRLFVENDS [R4C]`, “normalised enrichment score” read -0.0153.
For `STTRRRLFVENDR [S13R]`, “normalised enrichment score” read 0.556.
`STTRHRLFVENDS [R5H]`: “normalised enrichment score” 0.434.
`STTIRRLFVENDS [R4I]` — result for “normalised enrichment score”: 0.26.
`SMTRRRLFVENDS [T2M]` — result for “normalised enrichment score”: 0.481.
`STTRRREFVENDS [L7E]` — result for “normalised enrichment score”: -0.0638.
`STTRRRLFVENNS [D12N]` — result for “normalised enrichment score”: 0.127.
`STTRRRLPVENDS [F8P]` — result for “normalised enrichment score”: 0.431.
For `STTRWRLFVENDS [R5W]`, “normalised enrichment score” read 0.00703.
`SDTRRRLFVENDS [T2D]`: “normalised enrichment score” -0.0603.
Under “normalised enrichment score”, `SPTRRRLFVENDS [T2P]` is recorded as 0.511.
Under “normalised enrichment score”, `STTRRRLVVENDS [F8V]` is recorded as 0.147.
Under “normalised enrichment score”, `STTRRRLFVENDK [S13K]` is recorded as 0.572.
`STTRRRLFWENDS [V9W]` — result for “normalised enrichment score”: 0.936.
For `STTRRGLFVENDS [R6G]`, “normalised enrichment score” read -0.4.
For `STTRRFLFVENDS [R6F]`, “normalised enrichment score” read 0.187.
`STTTRRLFVENDS [R4T]` — result for “normalised enrichment score”: -0.281.
`STTRGRLFVENDS [R5G]`: “normalised enrichment score” -0.217.
`STSRRRLFVENDS [T3S]` — result for “normalised enrichment score”: 0.303.
For `STTRRRLFVEFDS [N11F]`, “normalised enrichment score” read 0.987.

Set 2 — technique: RNA Bind-n-Seq; form: RNA; medium: in vitro; tested at: 365 nM; reference: no-protein control; reading: higher = stronger binding
Target: RNA binding protein fox-1 homolog 2, RRM domain, GST-SBP tag (RBFOX2, Homo sapiens, UniProt O43251-10, residues 100-194)
Notes: natural RNA segment, single round, ends assumed
Constant ends, left off below: GGGAGUUCUACAGUCCGACGAUC … UGGAAUUCUCGGGUGCCAA
Target sequence (chain): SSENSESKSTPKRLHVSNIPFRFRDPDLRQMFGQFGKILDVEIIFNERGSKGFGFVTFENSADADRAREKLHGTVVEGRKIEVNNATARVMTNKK
`UGCUUCAAGAUGUCAGAAAGUCAAGUUCAGCUAAGAGACACCCAGGUCCCCAGCUUGCCCUGAGCAGCCCUUCAGGGCUUCUGGUUCCUUCUGCCGCCCUUCCUGAGACC`: “RBNS enrichment (R)” 0.289.
Under “RBNS enrichment (R)”, `GCCGCGUGCACCCUGCCGAGCUGCGUAUAUUCUGUACUGUGUACAAUAAAGAAGAUUGCUUUCCUUAGCAUUCCUGCAACCUGCCUCUUUCUUGCACUCGGUGUUUUCAU` is recorded as 1.12.
Under “RBNS enrichment (R)”, `UGUUAGGAGAAAAUAUUUUCCAUCUUUUAACCUCUUAGUUGUCUAAGAGUUAAAUAUUACUGAAUUUCAGACGUUCAAAUUGAUCAUCAGAAAUCCUUUAAAACAAUUAC` is recorded as 0.496.
`ACCCCUUGCUGGCACUGACUUUGCCUUGAACAGACCCUCUCCCCUCCCCCACAAGCCUUUAAUUGAGAGCCGCUCUUUAUAAGUGUUCGCUUGUGCAAAAGGGAAUAGUG`: “RBNS enrichment (R)” 1.24.
For `AGGGAGGUCUGUGCAUUUUAAACACAAAUGUGAAGAACUUGUAUAUAAACAAAAGUAAAUACUAUAAUACAAACUUCCUUCUGAAAUAAAAGUAGAUCUGGUAAAAAUGU`, “RBNS enrichment (R)” read 0.749.
`AACCCACCCCACACGCCAUGGACCUCAGGGCACUCUCCUCCCUGCCCACAAAGACCUCCUGGGUGGGAAAGACUCAAAGGGGUGCUUGGGCCACUCAGGACCCCUCUGGC` — result for “RBNS enrichment (R)”: 0.393.
Under “RBNS enrichment (R)”, `GCAGGAGGCUGACAUAGUGAUAUUGAGUAGUGAUUAGGAAAGGGGCGGUGUUGAACUGUUUGUGUAGAAAGCCAUCUUUCUGUCUCUUAAGCUCCUCUGGUUUGUCUGGU` is recorded as 2.14.
Under “RBNS enrichment (R)”, `GGUGGGCCUCUUGCUUGUUGUCUCCUGUCUCCUCAAAUGGCUGAAAACUUGGAGGGUCUCGGUUGUUUUCCAUGCCUGGCCCCUCACAGCAGCGAGGCCACUGAAGAGCA` is recorded as 0.38.

Set 3 — target: FOSB, bZIP domain (human); technique: DHFR protein complementation; medium: yeast; reference: wild-type JUN-FOS pair; reading: higher = stronger binding
Notes: single substitutions, most at no-binding floor
Starting sequence: JUN, bZIP domain (human); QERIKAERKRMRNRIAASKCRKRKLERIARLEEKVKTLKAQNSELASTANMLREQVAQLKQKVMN; partner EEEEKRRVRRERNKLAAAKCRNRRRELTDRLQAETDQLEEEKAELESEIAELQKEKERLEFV
For `Q55W`, the binding fitness was -0.629 natural log.
`L45P` has a binding fitness of -1.1 natural log.
`E54A` gave a binding fitness of -0.117 natural log.
`T48F` has a binding fitness of -0.117 natural log.
With `M51N` the binding fitness was -0.0691 natural log.
For `N42Q`, the binding fitness was -0.711 natural log.
The binding fitness of `V35A` is reported as -0.263 natural log.
The binding fitness of `I28R` is reported as -0.168 natural log.
The binding fitness of `L31A` is reported as -0.186 natural log.
For `A29Y`, the binding fitness was -0.371 natural log.
For `A57E`, the binding fitness was 0.0112 natural log.
`A46R` has a binding fitness of 0.0662 natural log.
For `E54G`, the binding fitness was -0.146 natural log.
`A40L` gave a binding fitness of -0.133 natural log.
For `A49Q`, the binding fitness was -0.906 natural log.
`Q55H` has a binding fitness of -0.162 natural log.
`L31Q` gave a binding fitness of -0.323 natural log.
With `I28F` the binding fitness was -0.296 natural log.
With `A57Q` the binding fitness was -0.199 natural log.
`T48R` has a binding fitness of 0.048 natural log.
For `V56N`, the binding fitness was -0.925 natural log.
For `V56P`, the binding fitness was -0.954 natural log.
The binding fitness of `L31Y` is reported as -0.394 natural log.
The binding fitness of `L45A` is reported as -0.875 natural log.
`E54H` has a binding fitness of -0.203 natural log.

Set 4 — technique: DHFR PCA, deep sequencing; medium: yeast; added: (+)-ABA 0.11 µM; reference: wild-type fitted maximum; reading: higher = stronger binding
Target: ABI1, truncated, D143A, DHFR fusion (Arabidopsis thaliana)
Notes: methotrexate growth selection, single substitutions
Starting sequence: PYL1, truncated, DHFR fusion (Arabidopsis thaliana); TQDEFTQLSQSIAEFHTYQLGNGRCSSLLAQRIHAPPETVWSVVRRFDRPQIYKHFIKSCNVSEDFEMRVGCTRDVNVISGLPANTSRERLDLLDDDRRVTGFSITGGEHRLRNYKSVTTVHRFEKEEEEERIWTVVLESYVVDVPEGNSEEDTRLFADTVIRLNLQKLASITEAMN; partner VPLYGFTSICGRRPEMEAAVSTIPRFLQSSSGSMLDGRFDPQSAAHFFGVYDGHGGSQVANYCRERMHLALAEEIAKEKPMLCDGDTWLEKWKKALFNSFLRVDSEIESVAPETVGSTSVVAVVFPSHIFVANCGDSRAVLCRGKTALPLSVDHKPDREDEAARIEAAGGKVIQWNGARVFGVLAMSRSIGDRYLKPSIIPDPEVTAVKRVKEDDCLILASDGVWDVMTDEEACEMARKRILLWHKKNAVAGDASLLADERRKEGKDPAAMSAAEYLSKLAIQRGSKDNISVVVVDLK
`P37A` — result for “relative binding score”: 26.4%.
For `R74F`, “relative binding score” read -4.75%.
`L169Q`: “relative binding score” 2.71%.
`K168A` — result for “relative binding score”: 4.9%.
For `D97V`, “relative binding score” read 29.8%.
`E4L` — result for “relative binding score”: 33.9%.
For `R99K`, “relative binding score” read 43.4%.
For `Q167F`, “relative binding score” read -3.27%.
`E38M`: “relative binding score” 1.56%.
For `R88K`, “relative binding score” read 43.8%.
Under “relative binding score”, `E129F` is recorded as 14%.
For `T119C`, “relative binding score” read 2.3%.
For `R88G`, “relative binding score” read -1.32%.
`P36R` — result for “relative binding score”: 14.3%.
Under “relative binding score”, `E4N` is recorded as 10.9%.
`T1I` — result for “relative binding score”: 38.7%.
`E128Q`: “relative binding score” 21.7%.
`N85W`: “relative binding score” 52.7%.
`Q2F`: “relative binding score” 70.3%.
For `A175K`, “relative binding score” read 38%.
For `D153L`, “relative binding score” read -0.135%.

Repeated from above (set 3):
For `A29Y`, the binding fitness was -0.371 natural log.
For `A57E`, the binding fitness was 0.0112 natural log.
`A46R` has a binding fitness of 0.0662 natural log.
For `E54G`, the binding fitness was -0.146 natural log.
`A40L` gave a binding fitness of -0.133 natural log.
For `A49Q`, the binding fitness was -0.906 natural log.
`Q55H` has a binding fitness of -0.162 natural log.
`L31Q` gave a binding fitness of -0.323 natural log.
With `I28F` the binding fitness was -0.296 natural log.
With `A57Q` the binding fitness was -0.199 natural log.
`T48R` has a binding fitness of 0.048 natural log.
For `V56N`, the binding fitness was -0.925 natural log.
For `V56P`, the binding fitness was -0.954 natural log.
